Experimental data gathered from unrelated publications.
Values joined by “and” are separate records of one study, mostly repeats; a detail may differ. Numbers after ± are the reported error. ≈ marks a conversion by molar mass, not a printed value.

| Structure (SMILES) | test | test system | setting | how to read | quantity | result |
| --- | --- | --- | --- | --- | --- | --- |
| C=C(C)[C@@H]1CC[C@]2(NCCN3CCS(=O)(=O)CC3)CC[C@]3(C)[C@H](CC[C@@H]4[C@@]5(C)CC=C(C6=CC[C@@](CF)(C(=O)O)CC6)C(C)(C)[C@@H]5CC[C@]43C)[C@@H]12 |  | HIV-1-positive treatment-naive adults, plasma | oral, 10 mg single dose, day 1, with food |  | tmax | 2.93 h |
| Oc1ccc(C(c2ccc(O)cc2)(C(F)(F)F)C(F)(F)F)cc1 | measured: free compound | Hsd:Sprague Dawley rat male, plasma | oral gavage, 110 mg/kg single dose |  | elimination (k10) half-life | 2.36 h |
| Cn1cnc2c(F)c(Nc3ccc(Br)cc3Cl)c(C(=O)NOCCO)cc21 |  | nude mice with A-375 tumours, plasma | oral, 10 mg/kg once daily, 7 days, steady state |  | Vz/F | 1.9 L/kg |
| CC(=O)NCCCC[C@H](NC(=O)OCC1c2ccccc2-c2ccccc21)C(=O)N[C@@H](CCC(=O)C=[N+]=[N-])C(=O)OC(C)C | metabolic stability | pig, liver | 20 µM, 1 h |  | compound remaining | < 50% |
| [2H]C([2H])([2H])Oc1cc2c(cc1OC([2H])([2H])[2H])C1CC(=O)C(CC(C)C)CN1CC2 (stereo not drawn) | measured: deuterated total (α+β)-HTBZ | healthy human volunteers, plasma | oral, 6 mg single dose, standard meal |  | dose-normalized Cmax | 2.5 ng/mL |
| COc1cc(Nc2ncc3c(n2)-c2ccc(Cl)cc2C(c2c(F)cccc2OC)=NC3)ccc1C(=O)O |  | children, UGT1A1 intermediate or poor metabolizers, no grade ≥2 toxicity, plasma | oral, 80 mg/m2, day 4 |  | trough concentration | 2250 ± 1530 nM |
| CC(C)[C@H](NC(=O)[C@@H]1CCCN1C(=O)[C@H](CCCNC(=N)N)NC(=O)[C@H](CS)NC(=O)[C@H](Cc1c[nH]c2ccccc12)NC(=O)[C@H](CCCNC(=N)N)NC(=O)[C@@H](Cc1ccccc1)NC(=O)[C@H](Cc1c[nH]cn1)NC(=O)[C@H](CCC(=O)O)NC(=O)[C@H](CS)NC(=O)[C@H](CS)NC(=O)[C@H](CCCCN)NC(=O)[C@@H]1CC(=O)N[C@@H](CCCNC(=N)N)C(=O)N[C@@H]([C@@H](C)O)C(=O)N[C@@H](CC(=O)O)C(=O)N[C@H](Cc2ccc(O)cc2)C(=O)N1)C(N)=O [technetium-99m labelled] |  | female C57 mouse, B16/F1 melanoma, urine | intravenous, dose not given, 2 h, with: NDP-MSH 10 µg co-injected |  | urinary excretion | 48.5 ± 21.6% |
| O=C1Nc2ccc(F)cc2C(=O)CCc2ccccc21 | nephelometry | aqueous buffer | 30 min, pH 6.5 |  | kinetic solubility | > 100 µg/mL |
| O=C(NCCCCNCCCNC(=O)c1cc(Br)c(Br)o1)c1cc(Br)c(Br)o1 | cell viability, MTT | bone marrow-derived macrophages, BALB/c mouse, female | 24 h |  | CC50 | 83 ± 4 µM |
| CS(=O)(=O)n1cc2c(n1)CN([C@H]1CO[C@H](c3cc(F)ccc3F)[C@@H](N)C1)C2 |  | healthy male human, plasma | oral, 1.5 mg single, fasted, geometric mean |  | concentration at 168 h | 3.3 nM |
| Cc1c(C(=O)NN2CCCCC2)nc(-c2ccc(Cl)cc2Cl)n1-c1ccc(OS(=O)(=O)CCC(F)(F)F)cc1 | LC-MS/MS | cynomolgus monkey, plasma | intravenous infusion, 0.3 mg/kg, 90 min, during PET |  | plasma concentration | 55 nM |
| C=CC(N)CCC(=O)O (stereo not drawn) |  | male Sprague-Dawley rat, plasma | oral, 1.0 mg/kg, formulation 2, with: infant formula 1500 mg/kg |  | AUC(0-inf) | 1750 ± 59 ng·h/mL |
| C=CC(=C)CCC1(C)C(C)CC(O)C23C(=CC(OC(=O)C(C)CC)CC12)C(OC(C)=O)OC3OC(C)=O (stereo not drawn) | haemolysis |  | 100 µM |  | haemolysis | 9.5% |
| Cn1cc(-c2ccc3nnc(Sc4ccc5ncccc5c4)n3n2)cn1 |  | guinea pig Hartley male, hepatic S9 | 1 µM, pH 7.4, with: hydralazine 50 µM, without NADPH |  | CLint | 14.6 ± 6.05 mL/min/kg |
| CCN(CC)CCNC(=O)c1c(C)[nH]c(/C=C2\C(=O)Nc3ccc(F)cc32)c1C |  | human | 37.5 mg daily, 4 wk on 2 wk off, 11 months |  | LVEF | 20 to 25% |
| CCN1C(=O)CNc2ncc(-c3ccc(-c4nc[nH]n4)nc3C)nc21 |  | human, plasma | oral, 25 mg once daily, multiple doses |  | AUC(0-12h) | 1180 ng·h/mL |
| Nc1nc2c(ccc3ccccc32)s1 |  | mouse, plasma | intraperitoneal, 10 mg/kg, 24 h |  | free plasma concentration | 300 nM |
| CCCC[C@H](NC(C)=O)C(=O)N[C@H]1CCC(=O)NC[C@@H](C(=O)N[C@@H](Cc2c[nH]c3ccccc23)C(N)=O)NC(=O)[C@H](CCCNC(=N)N)NC(=O)[C@@H](Cc2ccccc2)NC(=O)[C@H](Cc2c[nH]cn2)NC1=O |  | beagle dog, female, plasma | subcutaneous, 40.0 mg/kg daily, day 1 |  | AUC(0-last) | 3610 ng·h/mL |
| Cc1nc(-c2ccc(OCC(C)C)c(C#N)c2)sc1C(=O)O |  | adults with gout, plasma | oral, 80 mg, with: verinurad 2.5 mg |  | AUC(0-24) | 6360 ng·h/mL |
| S=C(NCCCc1c[nH]cn1)NCCCN(Cc1ccc(Cl)c(Cl)c1)c1ccc(Br)cn1 |  | male C57BL/6 mice, plasma | intraperitoneal, 30 mg/kg, 0.25 h |  | plasma concentration | 2420 ng/mL |
| CC(C)NC[C@@H](C(=O)N1CCN(c2ncnc3c2[C@H](C)C[C@H]3O)CC1)c1ccc(Cl)cc1 |  | human, normal hepatic function, plasma | oral, 100 mg single dose, reference group versus Mild | baseline: NCI classification | AUC(0-∞) | 340 ng·h/mL |
| CCC(CC)COC(=O)[C@H](C)N[P@](=O)(OC[C@H]1O[C@@](C#N)(c2ccc3c(N)ncnn23)[C@H](O)[C@@H]1O)Oc1ccccc1 |  | 20% w/w aqueous SBECD | 24 h, pH 1.9, 25 °C, SBECD source 4 |  | equilibrium solubility | 7620 µg/mL |
| O=C1N=C(N2CCOCC2)CN1c1ccc(Cl)cc1 |  | beagle dog, both sexes, plasma | oral, 30 mg/kg, tablets, fasted, day 0 |  | CL/F | 4.15 mL/min/kg |
| CCCC[C@@H]1NC(=O)[C@@H](NC(=O)[C@H](CCC(=O)O)NC(=O)CNC(=O)CN2CCN(CC(=O)O)CCN(CC(=O)O)CCN(CC(=O)O)CC2)CCCCNC(=O)C[C@@H](C(N)=O)NC(=O)[C@H](C(C)C)NC(=O)[C@@H]2CCCN2C(=O)[C@H](CCCNC(=N)N)NC(=O)CNC(=O)[C@H](Cc2c[nH]c3ccccc23)NC(=O)[C@H](CCCNC(=N)N)NC(=O)[C@@H](Cc2ccccc2)NC(=O)[C@H](Cc2c[nH]cn2)NC(=O)[C@H](CCC(=O)O)NC1=O [indium-111 labelled] |  | normal C57 mice, spleen | intravenous, 0.037 MBq, 4 h |  | tissue uptake | 0.06 ± 0.04 %ID/g |

| Structure (SMILES) | test | test system | setting | how to read | quantity | result |
| --- | --- | --- | --- | --- | --- | --- |
| Cc1cccc(N(C)c2nccc(-c3cnn4ncccc34)n2)c1 |  | human liver microsomes |  |  | CLint | 75 ± 5 µL/min/mg |
| C[C@](N)(Cc1ccc(O)c(O)c1)C(=O)O | static gravimetric method | supercritical CO2, 797.4 kg/m3 | 5 h, 323 K, pressure 21 MPa |  | solubility | 226 µg/mL (≈ 1070 µM) |
| Cc1nc2cccc(OCC(C)(C)C(=O)NC(C)C)c2c(N)c1C(=O)O |  | male Sprague-Dawley rat, plasma | intravenous, 1 mg/kg, single dose |  | Vd | 0.44 L/kg |
| CCCOc1ccc([C@H]2CNC(=O)N2c2ccc3[nH]cnc3c2)cc1 |  | human, plasma | oral, 800 mg, single dose, fasted |  | AUC(0-t) | 8190 ng·h/mL |
| Cc1ccc(-c2cc(C(F)(F)F)nn2-c2ccc(S(N)(=O)=O)cc2)cc1 |  | male ICR mouse, plasma | oral, 3 mg/kg, 24 h |  | AUC | 3420 ng·h/mL |
| CN(C)C(=O)c1cc2cnc(Nc3ccc(N4CCNCC4)cn3)nc2n1C1CCCC1 | LC-MS/MS | human, enhancing tumour tissue | oral, 600 mg once daily for 14 days |  | unbound concentration | 1.61 nmol/g and 1.19 nmol/g and 1.02 nmol/g and 1.36 nmol/g |
| CS(=O)(=O)Nc1ccc(C(=O)O[C@@H](Cc2c(Cl)c[n+]([O-])cc2Cl)c2ccc(OC(F)F)c(OCC3CC3)c2)cc1OCC1CC1 |  | human, plasma | inhalation, 2400 µg twice daily, day 1, geometric mean |  | AUC(0-12h) | 11.6 ng·h/mL |
| CNC[C@H](O)[C@@H](O)[C@H](O)[C@H](O)CO.CNC[C@H](O)[C@@H](O)[C@H](O)[C@H](O)CO.O=C([O-])CN(CCN(CC(=O)[O-])CC(=O)O)CCN(CC(=O)O)C(COCc1ccccc1)C(=O)[O-].[Gd+3] (stereo not drawn) | MRI at 9.4 T | saline | 37 °C, per Gd |  | T1 relaxivity r1 | 4.9 ± 0.1 mM⁻¹ s⁻¹ |
| CCOc1ccc(Cc2cc([C@]34OC[C@](CO)(O3)[C@@H](O)[C@H](O)[C@H]4O)ccc2Cl)cc1 |  | human, type 2 diabetes, mild renal impairment, urine | oral, 15 mg, 0 to 96 h |  | dose excreted unchanged | 0.72% |
| O=C(O)Cc1ccccc1Nc1c(Cl)cccc1Cl |  | rat, plasma | oral, 10 mg/kg, with: sesamin 100 mg/kg |  | AUC(0-24 h) | 6420 ± 3780 ng·h/mL |
| C[C@@H](c1ncncc1F)[C@](O)(Cn1cncn1)c1ccc(F)cc1F |  | patients, hematological disorders, CYP2C19 NM without PPI, plasma | 200 mg, 12 h, steady state, median, combined score 2 |  | trough concentration | 1130 ng/mL |
| COc1cccc(N2CCN(C3=Nc4c(F)cccc4[C@H](CC(=O)O)N3c3cc(C(F)(F)F)ccc3OC)CC2)c1 |  | healthy women, plasma | intravenous, 240 mg once daily, day 14, 30-min infusion |  | mean residence time | 8.36 ± 3.87 h |
| CN1CCN(c2ccc3nc(-c4c(N)c5c(F)cccc5[nH]c4=O)[nH]c3c2)CC1 |  | patients, plasma | oral, 300 mg, day 1, maximum concurrent dosing, with: gemcitabine and capecitabine |  | t1/2 | 15.3 h |
| CNC(=O)c1cccc2cc(Oc3ccnc4cc(OCC5(N)CC5)c(OC)cc34)ccc12 |  | human | oral, 10 mg, cycle 1 day 15, multiple dose, continuous arm |  | Vss/F | 163 ± 140 L |
| CCCCCCCCCCCCCNCC(=O)N(CC(=O)N(CCCCN)CC(=O)N(CCN)CC(=O)N(CC(N)=O)[C@@H](C)c1ccccc1)[C@@H](C)c1ccccc1 | preparative RP-HPLC C18 | water to acetonitrile gradient | 0.05% TFA in eluent | higher = more hydrophobic | acetonitrile at elution | 66.7% |
| CC1(C)C2CC[C@]1(C)C(=O)/C2=C/c1ccoc1 |  | human red blood cells | 10 to 300 µg/mL, 30 min |  | maximum hemolysis | < 14% |
| CC(C)C[C@H](NC(=O)[C@H](CCc1ccccc1)NC(=O)CN1CCOCC1)C(=O)N[C@@H](Cc1ccccc1)C(=O)N[C@@H](CC(C)C)C(=O)[C@@]1(C)CO1 | LC-MS | human, plasma | intravenous push, 20 mg/m^2 |  | Vz | 84.7 L |
| O=C(/C=C/c1ccc(O)c2c1[C@H](C(=O)O)[C@@H](c1ccc(O)c(O)c1)O2)O[C@H](Cc1ccc(O)c(O)c1)C(=O)O | UPLC-MS/MS | Wistar rat, microcirculation dysfunction model, plasma | oral, 100 mg/kg Salvia miltiorrhiza stem-leaf extract FT |  | MRT(0-t) | 7.56 ± 2.84 h |
| C[C@]12CC[C@@H]3c4ccc(O)cc4CC[C@H]3[C@@H]1C[C@@H](O)[C@@H]2O | GC-MS | breast cancer women on NSAI, serum | vaginal, 0.03 mg daily, 1 h, day 28 |  | median serum concentration | 0 ng/mL |
| Cn1c([N+](=O)[O-])cnc1COc1ccc(S(C)(=O)=O)cc1 |  | BALB/c mouse, whole blood | oral, 200 mg/kg fexinidazole, single dose |  | time above EC99 | ≥ 24 h |
| CN[C@@H]1[C@H](O)[C@H](NC)[C@H]2O[C@]3(O)[C@H](O[C@@H]2[C@H]1O)O[C@H](C)C[C@H]3NC(=O)Cc1ccc(F)cn1 | glutathione conjugation | human liver S9 | 100 µM, 2 h, pH 7.4, with: glutathione 0.2 mM |  | parent remaining | 98.7% |
| CC/C(=C(\c1ccccc1)c1ccc(OCCN(C)C)cc1)c1ccccc1 |  | female breast cancer patients, plasma | dose-normalised to 20 mg, with: weak CYP2D6-inhibiting SSRI escitalopram or citalopram |  | AUC(0-24) | 6.96 µM·h |
| O=C1CCc2ccccc2C(=O)c2ccccc2N1 | nephelometry | aqueous buffer | 30 min, pH 6.5 |  | kinetic solubility | > 100 µg/mL |
| CN(C)C(=O)c1cc2cnc(Nc3ccc(N4CCNCC4)cn3)nc2n1C1CCCC1 |  | human, mild renal impairment | oral, 400 mg, 0 to 144 h, geometric mean |  | amount excreted in urine | 19.9 mg |
